Assay results pooled from the literature.
Numbered parts are unrelated; each lists some results of a single study. Positions count from the first letter of the parent shown.
Chain of UniProt Q56UN5 (whole entry, looked up): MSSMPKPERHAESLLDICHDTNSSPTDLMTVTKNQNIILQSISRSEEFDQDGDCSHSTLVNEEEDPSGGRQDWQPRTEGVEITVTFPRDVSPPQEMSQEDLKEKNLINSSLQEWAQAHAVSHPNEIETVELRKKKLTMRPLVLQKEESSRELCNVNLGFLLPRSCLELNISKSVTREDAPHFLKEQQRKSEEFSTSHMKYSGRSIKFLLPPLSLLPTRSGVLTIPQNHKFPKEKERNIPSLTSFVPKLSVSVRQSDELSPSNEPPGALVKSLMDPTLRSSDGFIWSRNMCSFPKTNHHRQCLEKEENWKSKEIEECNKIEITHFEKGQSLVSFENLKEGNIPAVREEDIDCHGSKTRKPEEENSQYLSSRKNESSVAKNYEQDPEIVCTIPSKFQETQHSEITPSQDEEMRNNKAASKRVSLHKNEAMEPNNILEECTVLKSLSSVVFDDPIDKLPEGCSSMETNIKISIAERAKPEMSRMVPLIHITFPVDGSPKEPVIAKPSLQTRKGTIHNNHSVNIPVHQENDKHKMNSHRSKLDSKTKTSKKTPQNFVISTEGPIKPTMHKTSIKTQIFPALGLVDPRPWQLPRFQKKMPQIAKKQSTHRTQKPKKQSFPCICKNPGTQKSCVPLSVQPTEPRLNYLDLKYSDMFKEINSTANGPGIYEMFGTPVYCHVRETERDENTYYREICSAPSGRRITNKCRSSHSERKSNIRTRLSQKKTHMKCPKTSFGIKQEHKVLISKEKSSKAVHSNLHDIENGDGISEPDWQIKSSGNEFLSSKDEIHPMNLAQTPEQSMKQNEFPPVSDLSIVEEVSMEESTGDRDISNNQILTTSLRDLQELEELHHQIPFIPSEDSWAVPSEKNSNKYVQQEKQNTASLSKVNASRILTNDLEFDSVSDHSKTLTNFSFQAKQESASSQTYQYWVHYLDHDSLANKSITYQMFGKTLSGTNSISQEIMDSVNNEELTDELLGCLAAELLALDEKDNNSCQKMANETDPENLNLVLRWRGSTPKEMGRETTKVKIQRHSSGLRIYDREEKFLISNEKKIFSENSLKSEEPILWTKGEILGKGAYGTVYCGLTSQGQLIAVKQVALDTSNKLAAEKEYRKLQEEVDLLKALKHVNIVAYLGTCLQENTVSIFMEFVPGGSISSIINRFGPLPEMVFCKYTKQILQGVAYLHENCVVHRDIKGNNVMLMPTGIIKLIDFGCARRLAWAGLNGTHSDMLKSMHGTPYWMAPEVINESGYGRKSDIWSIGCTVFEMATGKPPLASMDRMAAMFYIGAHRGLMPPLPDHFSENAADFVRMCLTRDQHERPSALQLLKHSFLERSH
Chain of UniProt O15197 (whole entry, looked up): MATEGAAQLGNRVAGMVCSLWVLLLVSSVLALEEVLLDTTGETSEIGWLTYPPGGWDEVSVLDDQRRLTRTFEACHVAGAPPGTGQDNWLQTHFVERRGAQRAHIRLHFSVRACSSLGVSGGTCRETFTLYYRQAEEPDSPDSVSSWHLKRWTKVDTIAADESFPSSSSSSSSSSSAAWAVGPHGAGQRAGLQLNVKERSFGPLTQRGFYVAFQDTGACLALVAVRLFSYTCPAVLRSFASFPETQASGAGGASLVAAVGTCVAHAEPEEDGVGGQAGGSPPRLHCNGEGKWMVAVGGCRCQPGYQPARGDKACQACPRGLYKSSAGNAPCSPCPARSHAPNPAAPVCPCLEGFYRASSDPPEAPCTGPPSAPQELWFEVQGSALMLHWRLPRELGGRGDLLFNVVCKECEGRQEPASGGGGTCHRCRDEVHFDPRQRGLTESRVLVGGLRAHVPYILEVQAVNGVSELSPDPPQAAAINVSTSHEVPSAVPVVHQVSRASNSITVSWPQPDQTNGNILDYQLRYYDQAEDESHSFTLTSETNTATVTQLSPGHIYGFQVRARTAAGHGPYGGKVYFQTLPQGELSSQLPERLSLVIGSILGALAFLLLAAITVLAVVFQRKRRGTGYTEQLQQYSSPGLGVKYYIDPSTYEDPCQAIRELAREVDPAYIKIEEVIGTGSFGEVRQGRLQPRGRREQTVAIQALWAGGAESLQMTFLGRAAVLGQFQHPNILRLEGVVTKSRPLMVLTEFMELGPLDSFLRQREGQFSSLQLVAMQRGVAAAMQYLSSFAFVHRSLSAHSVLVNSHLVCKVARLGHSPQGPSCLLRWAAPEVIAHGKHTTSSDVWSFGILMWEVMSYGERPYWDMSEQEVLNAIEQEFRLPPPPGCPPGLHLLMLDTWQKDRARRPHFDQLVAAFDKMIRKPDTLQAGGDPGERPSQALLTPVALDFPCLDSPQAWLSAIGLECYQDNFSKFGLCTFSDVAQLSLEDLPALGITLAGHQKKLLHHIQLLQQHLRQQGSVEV
Chain of UniProt Q9Y6M4 (whole entry, looked up): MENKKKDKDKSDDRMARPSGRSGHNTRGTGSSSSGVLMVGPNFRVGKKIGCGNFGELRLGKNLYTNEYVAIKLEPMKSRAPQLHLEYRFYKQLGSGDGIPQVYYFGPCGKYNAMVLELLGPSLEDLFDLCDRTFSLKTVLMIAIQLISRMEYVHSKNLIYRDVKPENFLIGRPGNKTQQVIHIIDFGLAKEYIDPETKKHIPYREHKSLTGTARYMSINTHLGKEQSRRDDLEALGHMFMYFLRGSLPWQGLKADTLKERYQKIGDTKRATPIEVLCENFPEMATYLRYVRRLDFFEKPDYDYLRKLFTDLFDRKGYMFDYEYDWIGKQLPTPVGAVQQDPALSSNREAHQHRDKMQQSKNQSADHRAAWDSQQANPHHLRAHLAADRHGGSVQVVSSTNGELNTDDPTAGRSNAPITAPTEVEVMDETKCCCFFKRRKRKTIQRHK
Chain of UniProt Q9P2K8 (whole entry, unmodified, looked up): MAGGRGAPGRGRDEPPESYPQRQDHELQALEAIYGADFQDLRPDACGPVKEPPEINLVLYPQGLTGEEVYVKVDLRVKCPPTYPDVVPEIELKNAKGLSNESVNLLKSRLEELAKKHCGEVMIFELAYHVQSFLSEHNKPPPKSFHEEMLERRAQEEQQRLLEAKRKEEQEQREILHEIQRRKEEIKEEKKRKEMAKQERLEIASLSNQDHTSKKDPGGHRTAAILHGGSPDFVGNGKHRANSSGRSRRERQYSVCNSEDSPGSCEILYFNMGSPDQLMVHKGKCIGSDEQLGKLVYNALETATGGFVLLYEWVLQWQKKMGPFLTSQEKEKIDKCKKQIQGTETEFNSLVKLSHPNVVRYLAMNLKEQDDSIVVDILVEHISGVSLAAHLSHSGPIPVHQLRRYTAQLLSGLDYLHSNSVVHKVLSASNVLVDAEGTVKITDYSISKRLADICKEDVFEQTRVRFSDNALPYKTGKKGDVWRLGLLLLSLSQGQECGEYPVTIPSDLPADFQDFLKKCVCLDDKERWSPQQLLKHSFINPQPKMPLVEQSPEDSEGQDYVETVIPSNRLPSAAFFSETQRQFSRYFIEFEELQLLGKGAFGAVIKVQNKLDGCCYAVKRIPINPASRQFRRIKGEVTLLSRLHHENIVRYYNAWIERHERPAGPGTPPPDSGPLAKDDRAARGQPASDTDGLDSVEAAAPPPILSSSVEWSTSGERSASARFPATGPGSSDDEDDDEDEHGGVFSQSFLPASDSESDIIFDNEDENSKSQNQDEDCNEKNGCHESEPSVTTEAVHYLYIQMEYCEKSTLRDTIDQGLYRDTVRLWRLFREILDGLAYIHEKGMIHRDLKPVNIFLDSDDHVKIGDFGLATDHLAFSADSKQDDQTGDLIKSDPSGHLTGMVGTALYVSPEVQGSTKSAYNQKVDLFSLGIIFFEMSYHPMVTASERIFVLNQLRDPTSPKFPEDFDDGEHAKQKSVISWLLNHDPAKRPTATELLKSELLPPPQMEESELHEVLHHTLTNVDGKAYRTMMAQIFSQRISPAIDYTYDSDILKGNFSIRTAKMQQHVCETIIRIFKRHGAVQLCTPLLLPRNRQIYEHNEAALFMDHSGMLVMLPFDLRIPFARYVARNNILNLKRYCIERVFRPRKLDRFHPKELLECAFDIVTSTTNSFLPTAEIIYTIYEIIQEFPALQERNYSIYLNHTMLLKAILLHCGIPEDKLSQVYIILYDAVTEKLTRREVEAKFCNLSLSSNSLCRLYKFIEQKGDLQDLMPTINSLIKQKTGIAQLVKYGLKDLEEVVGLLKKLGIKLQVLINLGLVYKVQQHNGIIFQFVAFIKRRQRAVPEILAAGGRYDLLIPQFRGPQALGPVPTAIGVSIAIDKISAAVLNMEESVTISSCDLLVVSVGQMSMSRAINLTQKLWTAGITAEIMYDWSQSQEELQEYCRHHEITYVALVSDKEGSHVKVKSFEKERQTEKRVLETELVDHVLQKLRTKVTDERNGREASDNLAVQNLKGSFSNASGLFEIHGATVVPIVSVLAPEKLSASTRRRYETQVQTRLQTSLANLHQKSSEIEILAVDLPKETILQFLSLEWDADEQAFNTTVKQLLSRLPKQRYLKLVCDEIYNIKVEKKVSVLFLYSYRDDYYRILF

Set 1
SMILES: COCCOc1nc(-c2ccc(Cl)nc2)nc2c1CN(C(=O)c1ncn3ccccc13)CC2
Observed: cell-free assay
Method: competition with immobilised ligand
Concentration: 0.1 µM
target | remaining binding [%]
FLT3 (Homo sapiens, UniProt P36888, ITD) | 96
IKBKB (Homo sapiens, UniProt O14920) | 100
CDK14 (Homo sapiens, UniProt O94921) | 100
EIF2AK1 (Homo sapiens, UniProt Q9BQI3) | 100
DYRK2 (Homo sapiens, UniProt Q92630) | 100
CSNK1G3 (Homo sapiens, UniProt Q9Y6M4) | 100
FLT3 (Homo sapiens, UniProt P36888, N841I) | 100
MAP3K19 (Homo sapiens, UniProt Q56UN5) | 100
TIE1 (Homo sapiens, UniProt P35590) | 100
eIF-2-alpha kinase GCN2, C-terminal kinase domain (EIF2AK4, Homo sapiens, UniProt Q9P2K8, S808G) | 100
CLK3 (Homo sapiens, UniProt P49761) | 100
KIT (Homo sapiens, UniProt P10721) | 100
CDK7 (Homo sapiens, UniProt P50613) | 77
EPHB6 (Homo sapiens, UniProt O15197) | 78
Ribosomal protein S6 kinase alpha-6, C-terminal kinase domain (RPS6KA6, Homo sapiens, UniProt Q9UK32) | 100
SRPK2 (Homo sapiens, UniProt P78362) | 100

Set 2
Target: Max-binding protein MNT, bHLH-zipper, MAX partner unstated (MNT, Homo sapiens, UniProt Q99583, residues 220-300)
Method: protein-binding microarray
Form: double-stranded DNA, one strand shown
Sample: in vitro
Concentration: not given
Setting: k-mer, scored over probes, only values ≥0.25
Direction: higher = stronger binding
Construct (chain): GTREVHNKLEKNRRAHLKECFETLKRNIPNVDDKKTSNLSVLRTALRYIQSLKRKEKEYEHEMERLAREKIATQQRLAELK
Sequence | E-score
AGCACATG | 0.483
CGCGTGAA | 0.377
ACGCGTTG | 0.261
ATGCGCCG | 0.307
CACGTGAG | 0.49
ACATGAGG | 0.404
GCGCGCGC | 0.349
CATGCTGA | 0.395

Set 3
Target: Calcium/calmodulin-dependent protein kinase kinase 2 (CAMKK2, Homo sapiens, UniProt Q96RR4)
Chain of UniProt Q96RR4 (whole entry, looked up): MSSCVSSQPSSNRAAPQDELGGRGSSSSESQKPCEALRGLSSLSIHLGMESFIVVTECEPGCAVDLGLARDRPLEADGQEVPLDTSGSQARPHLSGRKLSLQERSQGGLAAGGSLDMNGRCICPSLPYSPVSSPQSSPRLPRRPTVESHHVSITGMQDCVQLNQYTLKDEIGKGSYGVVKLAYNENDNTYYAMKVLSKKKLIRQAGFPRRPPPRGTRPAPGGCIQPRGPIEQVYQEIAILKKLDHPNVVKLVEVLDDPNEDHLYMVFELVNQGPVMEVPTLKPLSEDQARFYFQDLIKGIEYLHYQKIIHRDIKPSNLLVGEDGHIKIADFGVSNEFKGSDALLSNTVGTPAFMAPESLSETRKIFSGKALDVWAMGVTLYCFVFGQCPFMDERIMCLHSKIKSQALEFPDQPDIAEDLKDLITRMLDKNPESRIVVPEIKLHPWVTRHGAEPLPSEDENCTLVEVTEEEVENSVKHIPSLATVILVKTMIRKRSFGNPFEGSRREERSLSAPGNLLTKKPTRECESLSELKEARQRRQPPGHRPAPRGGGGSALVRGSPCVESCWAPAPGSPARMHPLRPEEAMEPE
Observed: enzyme activity
Mode: inhibitor
Concentration: 0.5 µM
Relative to: control
SMILES | remaining activity [%]
COc1ccc(CNC(=O)Nc2ncc([N+](=O)[O-])s2)cc1 | 92.7
C#Cc1cccc(Nc2ncnc3cc(OCCOC)c(OCCOC)cc23)c1 | 97.1
Oc1ccc(-c2nc(-c3ccncc3)c(-c3ccc(F)cc3)[nH]2)cc1 | 118
Cc1ccc(Nc2nccc(N(C)c3ccc4c(C)n(C)nc4c3)n2)cc1S(N)(=O)=O | 98.5
O=C(CCCc1ccc(-c2ccccc2F)cc1)Nc1ccc(O)cc1 | 86.6
COc1ccc(C(=O)Nc2sc3c(c2C(N)=O)CCCC3)cc1OC | 96.9
CCOC(=O)c1c(C)[nH]c(/C=C2\C(=O)Nc3ccccc32)c1C | 90.8
O=C1NC(=O)C(c2cn(CCCn3ccnc3)c3ccccc23)=C1Nc1ccccc1 | 51.3
NCCNc1ncc(C(N)=O)c(Nc2cccc(C(F)(F)F)c2)n1 | 96.2
O=c1c2ccccc2[nH]c(=S)n1CCN1CCC(=C(c2ccc(F)cc2)c2ccc(F)cc2)CC1 | 100
N#CC(C#N)=C(N)/C(C#N)=C/c1ccc(O)cc1 | 91.6
Nc1ccc2ncnc(NCCc3ccc(Oc4ccccc4)cc3)c2c1 | 92.6
CC(C)[C@H](CO)Nc1nc(Nc2cc(N)cc(Cl)c2)c2ncn(C(C)C)c2n1 | 33.2
COc1cc2ncnc(Nc3ccc(Oc4ccccc4)cc3)c2cc1OC | 104
COc1cc2ncnc(Nc3ccc(F)c(Cl)c3)c2cc1OCCCN1CCOCC1 | 103

Set 4
Target: CCND2, cyclin fold, Cln2 fusion (human)
Method: yeast growth competition, sequencing
Sample: yeast
Setting: weak parent motif
Relative to: not given
Direction: higher = stronger binding
Parent: WEE1 docking peptide (human); HKTFRKLRLFDTP; partner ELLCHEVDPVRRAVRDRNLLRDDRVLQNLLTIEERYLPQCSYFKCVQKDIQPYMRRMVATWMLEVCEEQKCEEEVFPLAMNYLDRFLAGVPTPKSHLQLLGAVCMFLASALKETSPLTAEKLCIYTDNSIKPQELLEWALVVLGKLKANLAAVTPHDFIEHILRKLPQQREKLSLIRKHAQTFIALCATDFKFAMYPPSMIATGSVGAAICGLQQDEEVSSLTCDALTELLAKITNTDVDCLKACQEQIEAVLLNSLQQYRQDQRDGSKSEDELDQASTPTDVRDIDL
Substitution | normalised enrichment score
HKTFRMLRLFDTP [K6M] | -0.238
HKTFRKLRLQDTP [F10Q] | -0.635
HKTFRKSRLFDTP [L7S] | -0.422
HKTFRNLRLFDTP [K6N] | 0.382
HKTFMKLRLFDTP [R5M] | 0.295
HKTIRKLRLFDTP [F4I] | 0.00713
HKTFRKLRCFDTP [L9C] | 0.122
HKTRRKLRLFDTP [F4R] | 0.439

For quick reference, copied from above (set 1):
target | remaining binding [%]
FLT3 (Homo sapiens, UniProt P36888, N841I) | 100
MAP3K19 (Homo sapiens, UniProt Q56UN5) | 100
TIE1 (Homo sapiens, UniProt P35590) | 100
eIF-2-alpha kinase GCN2, C-terminal kinase domain (EIF2AK4, Homo sapiens, UniProt Q9P2K8, S808G) | 100
